Measurements of several laboratories.
Every numbered part comes from another study and shows a few of its results, in no order. Changes are numbered by the printed parent chain.

Set 1
Target: CCND1, cyclin fold, Cln2 fusion (human)
Technique: yeast growth competition, sequencing
Matrix: yeast
Notes: weak parent motif
Relative to: not given
Direction: higher = stronger binding
Starting sequence: PKMYT1 docking peptide (human); SFEPRNLLSLFED; partner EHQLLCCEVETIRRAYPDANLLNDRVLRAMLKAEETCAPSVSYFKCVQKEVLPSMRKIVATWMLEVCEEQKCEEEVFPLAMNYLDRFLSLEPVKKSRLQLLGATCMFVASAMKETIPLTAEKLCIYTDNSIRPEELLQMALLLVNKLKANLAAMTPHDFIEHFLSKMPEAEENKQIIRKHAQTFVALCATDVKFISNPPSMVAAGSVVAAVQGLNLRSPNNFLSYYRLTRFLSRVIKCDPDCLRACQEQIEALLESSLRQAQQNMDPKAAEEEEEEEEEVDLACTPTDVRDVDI
Variant	normalised enrichment score
E3N	0.505
F2D	0.884
P4L	1.39
D13I	1.34
R5A	1.34
P4M	1.64
E12S	0.617
L8M	1.25
N6G	1.58
S9E	1.21
R5I	1.88
E3M	0.875
N6Y	1.12

Set 2
Target: RNA binding protein fox-1 homolog 2, RRM domain, GST-SBP tag (RBFOX2, Homo sapiens, UniProt O43251-10, residues 100-194)
Technique: RNA Bind-n-Seq
Form: RNA
Matrix: in vitro
Concentration: 365 nM
Notes: natural RNA segment, single round, ends assumed
Relative to: no-protein control
Direction: higher = stronger binding
Construct (chain): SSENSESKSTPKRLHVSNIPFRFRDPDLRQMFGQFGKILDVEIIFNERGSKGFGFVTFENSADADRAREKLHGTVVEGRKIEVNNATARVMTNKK
Oligonucleotide	RBNS enrichment (R)
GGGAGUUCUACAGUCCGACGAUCUGAAGAUAGACUGUUGGAGUGGACCACGGCCAAGCUUGCUCCGUCCUCGGACAGGAAGCCACCCUGCGUGGGGGACUGCAGGCACGCAAAAUAAAAUAACUCCUGCUCGUUGGAAUUCUCGGGUGCCAA	0.184
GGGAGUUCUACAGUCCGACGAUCUGGACUUUGAUUUAGGGAUCAUGUUUUGGCCUGGAAAAUAAGCAUUGGCCUGCGUGUUUAGAAGCUCCCUGAAAUCAGUUAGCAUCCUAAUACGAGUCAGAUGCUGCAGAUGGAAUUCUCGGGUGCCAA	0.481
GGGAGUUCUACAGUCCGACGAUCGCUGGGGGCAGACACCCGAGUGUCUACGUAAGGUAGUAAAGUGGAAAUAGUCUUUGCUCAUUCUUGGGAUGCCUGAACGCUAGCUAAGCAUCUGAUAAACGCUGUGGAGAUGGAAUUCUCGGGUGCCAA	0.855
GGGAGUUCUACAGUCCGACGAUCGUAUGAUAAAGAUGAUCUAAUUUGUGAAUGCAUAUGUAUGUGUGGUUACUUUUUAUAAUGUGAAAUAAUGAAUAAUGAAUUUACUCAAAAUAAAACAUAGGUUAAUGAGAUGGAAUUCUCGGGUGCCAA	1.88
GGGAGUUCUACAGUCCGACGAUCAAUCUUAGGGUGUCUAUCCACGUCUGGCUGUGCCAAAUGGUCUGGCAGCUGGUUUUGGCAUCCCCAGCAUCACCACUCUCCCAACCCAUCACCGUGACUGCAGUUCCUGCUGGAAUUCUCGGGUGCCAA	0.228
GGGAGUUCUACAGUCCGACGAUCUCCCGUCCCUGUAGCUGCUCUGUUUAGACAGCGGACAGACGCUCACGCCCAGGGGAUGUCCUCACGCUGUCGCCGCGCGGUUUCCCUUCGCAGAUGUGUAUACUCAUGAUUGGAAUUCUCGGGUGCCAA	0.286
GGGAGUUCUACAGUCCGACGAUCACCAAAGGCUCCUUCCAGGAGCGCGCCAGCAAGCCUUACUGCCAGCCUUGCUUCCUGAAGCUCUUCGGCUGACCUCCUCUUGGGAUCAGAGAUCUCCAAAACUAAGCCUUUGGAAUUCUCGGGUGCCAA	0.137
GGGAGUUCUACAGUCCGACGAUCAUAAAUUCAAAUAUAUUUUUCUCCAAACUGCCAAAGGGAAAGUAGAAUUGUGGAGGGAAAUGAAAUAUCCAUGUACCAGGCCAGGCAGAUGGUCAGUUAGGAUGACAAUAUGGAAUUCUCGGGUGCCAA	0.795
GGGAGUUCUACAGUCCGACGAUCUCCUGUAACCUAGCCUGUAUUAUACAAGAAAACUUGAGCAGGACAUUUCAAGAGAAUAUGUUGGCCUAAUUGUUGGGUUGGCUGGGACCUGCUCUGAAGGGAUCCCUCAGUGGAAUUCUCGGGUGCCAA	0.438
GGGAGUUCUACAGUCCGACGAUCAGAAUUGUUGGCAUGAUGACAUUUCAUUUGUGCCAAAAAUAUUAAAAAUGCCUUUUUUGGAAGGACUAACAGAAAGCACCUGAUUUGCACUUGAACCAGAUUAUAGAUUUUGGAAUUCUCGGGUGCCAA	0.737
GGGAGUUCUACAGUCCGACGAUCUCUUUCUUGGUUUCCAGAGGAACUGAGCCUGAGUGGGCUCUGCCAGUGCCUAGUGGAACUGUCCACCCAGCCAGCCACUGUGUGUUAUGGUUCUGCAACCACCAGGGAGGUGGAAUUCUCGGGUGCCAA	0.25
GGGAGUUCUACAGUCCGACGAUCUUUCCAGGGCUUGUUGGUACAAAUCAAAGCCAAGACCAAUUAAAAGAAAUGUAUUUUUAUCUUCGGAUUGGUCUUUGAUGUUGCCUCUGUGUGUAUAAAAAUAGACCUCUUGGAAUUCUCGGGUGCCAA	0.336

Set 3
Target: ABI1, truncated, D143A, DHFR fusion (Arabidopsis thaliana)
Technique: DHFR PCA, deep sequencing
Matrix: yeast
Notes: methotrexate growth selection, single substitutions
Added: (+)-ABA 200 µM
Relative to: wild-type fitted maximum
Direction: higher = stronger binding
Starting sequence: PYL1, truncated, DHFR fusion (Arabidopsis thaliana); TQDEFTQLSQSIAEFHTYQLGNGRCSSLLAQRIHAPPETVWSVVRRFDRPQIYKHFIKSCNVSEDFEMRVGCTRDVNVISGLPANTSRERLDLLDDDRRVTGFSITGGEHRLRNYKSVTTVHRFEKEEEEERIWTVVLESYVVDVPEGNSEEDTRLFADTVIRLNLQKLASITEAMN
Variant	relative binding score [%]
S150H	71.5
F56N	3.33
L138F	101
T160C	86.5
D95R	59.1
K116H	91.5
F124T	87.4
D159T	61.1
I57L	95.3
F47G	3.23
R155I	94.8
D48L	2.7
V121Y	-5.53

Set 4
Target: Sal-like protein 4, full length isoform A (SALL4, Homo sapiens, UniProt Q9UJQ4, residues 1-1053)
UniProt Q9UJQ4, sequence (whole entry, looked up): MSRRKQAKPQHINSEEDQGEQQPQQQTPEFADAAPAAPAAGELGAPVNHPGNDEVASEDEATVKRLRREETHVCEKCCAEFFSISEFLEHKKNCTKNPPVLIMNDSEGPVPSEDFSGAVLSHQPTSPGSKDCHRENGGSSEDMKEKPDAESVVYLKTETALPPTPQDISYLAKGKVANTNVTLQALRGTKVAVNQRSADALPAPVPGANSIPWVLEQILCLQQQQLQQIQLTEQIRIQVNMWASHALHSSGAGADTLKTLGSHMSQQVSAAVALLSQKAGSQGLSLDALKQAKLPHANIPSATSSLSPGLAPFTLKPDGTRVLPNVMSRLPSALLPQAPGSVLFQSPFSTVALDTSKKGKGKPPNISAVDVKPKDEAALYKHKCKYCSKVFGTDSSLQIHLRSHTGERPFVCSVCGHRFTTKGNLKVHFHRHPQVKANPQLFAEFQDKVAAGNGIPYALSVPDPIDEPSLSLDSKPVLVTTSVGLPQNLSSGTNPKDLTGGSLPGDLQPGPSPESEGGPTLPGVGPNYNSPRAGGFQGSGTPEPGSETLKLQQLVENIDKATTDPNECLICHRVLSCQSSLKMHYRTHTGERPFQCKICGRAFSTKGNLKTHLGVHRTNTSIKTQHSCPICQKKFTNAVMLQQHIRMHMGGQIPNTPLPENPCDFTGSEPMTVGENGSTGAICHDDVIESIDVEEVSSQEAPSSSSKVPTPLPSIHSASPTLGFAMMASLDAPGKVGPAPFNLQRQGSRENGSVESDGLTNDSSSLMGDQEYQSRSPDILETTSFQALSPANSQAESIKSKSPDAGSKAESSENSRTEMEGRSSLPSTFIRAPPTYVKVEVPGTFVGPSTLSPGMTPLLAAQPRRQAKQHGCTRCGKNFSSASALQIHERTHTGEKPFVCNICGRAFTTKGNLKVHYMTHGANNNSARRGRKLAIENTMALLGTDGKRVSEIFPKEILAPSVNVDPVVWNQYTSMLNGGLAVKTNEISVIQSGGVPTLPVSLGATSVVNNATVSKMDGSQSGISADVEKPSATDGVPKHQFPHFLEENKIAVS
Technique: universal PBM
Form: double-stranded DNA, one strand shown
Matrix: in vitro
Concentration: 600 nM
Notes: 8-mer, flanks averaged, mean of replicates
Direction: higher = stronger binding
Oligonucleotide	E-score
ATTCCAAA	0.163
ACTTATCG	-0.0184
AGACACAG	-0.142
AGACGCAG	-0.173
CATCTTGG	0.0106
GAGGATCA	-0.0459
CGTTCAGA	-0.128
ACGCAGCG	-0.319
CCCGGTCG	-0.434
ATAGAAAC	0.275
ATTGTTAA	0.346
AGGTCGCG	-0.305
CAGCAGGC	-0.192
CGATTCTC	-0.0167
CCGCAACG	-0.116
AGATTATC	0.229
CGCTGCCG	-0.317
AGCACTGC	-0.134
ATCTCTGC	0.0276
GTTGCTTA	0.0845
CCTGGGCC	-0.33
TATTACAA	0.402
TGCAAACA	0.152
CCACCAGA	-0.222
ATTGTCGG	-0.0418

Set 5
Target: Histone acetyltransferase KAT6A, both winged helices, GST fusion (KAT6A, Homo sapiens, UniProt Q92794, residues 1-181)
Technique: protein binding microarray
Form: double-stranded DNA, one strand shown
Matrix: in vitro
Concentration: not given
Notes: 8-mer, flanks averaged, mean of 2 arrays, mostly near background
Relative to: not given
Direction: higher = stronger binding
Construct (chain): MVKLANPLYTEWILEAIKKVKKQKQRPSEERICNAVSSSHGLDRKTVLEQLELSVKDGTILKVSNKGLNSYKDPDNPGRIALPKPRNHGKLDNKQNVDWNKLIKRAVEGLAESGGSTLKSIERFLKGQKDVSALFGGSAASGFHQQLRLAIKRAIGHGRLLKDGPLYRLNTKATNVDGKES
Oligonucleotide	E-score
ATCATGCA	-0.108
CCGCGGCC	0.4
GTGACGGA	0.171
AACTAGTG	-0.174
ATACTTCA	-0.152
AGTATCTA	-0.0714
CAATCGTA	0.036
GCTGGTTA	-0.108
CTACTCCC	-0.051
CGAGATTC	0.007
CAACCGTG	0.0487
ACATTTTC	-0.0197
TAGTTTCA	-0.143
ACTATCAC	-0.145
AAACGGAA	0.281
GCCTGCAA	-0.128
CGCGGATA	0.267
CGTGTGGA	-0.0487

Set 6
Target: NFE2, bZIP domain (human)
Technique: DHFR protein complementation
Matrix: yeast
Notes: single substitutions, most at no-binding floor
Relative to: wild-type JUN-FOS pair
Direction: higher = stronger binding
Starting sequence: JUN, bZIP domain (human); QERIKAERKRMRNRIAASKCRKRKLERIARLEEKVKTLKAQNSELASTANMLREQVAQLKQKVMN; partner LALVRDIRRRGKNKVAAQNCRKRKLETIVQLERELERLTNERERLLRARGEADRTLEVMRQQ
Variant	binding fitness
E44T	-1.56 natural log
A49M	-1.46 natural log
A46H	-1.51 natural log
Q41E	-1.48 natural log
A46C	-1.59 natural log
L52T	-1.52 natural log
E44Y	-1.46 natural log
E54T	-1.27 natural log
E44C	-1.23 natural log
S47L	-1.23 natural log

Set 7
Target: Interferon regulatory factor 5, full length, phosphomimetic (IRF5, Homo sapiens, UniProt Q13568-2, residues 1-514, K96S/S451D/S453D/S456D/S462D)
Technique: protein-binding microarray
Form: double-stranded DNA, one strand shown
Matrix: in vitro
Concentration: 250 nM
Notes: 60-bp whole probe
Added: salmon DNA 0.4 mg/ml
Relative to: random background probes
Direction: higher = stronger binding
Shared flanks, not repeated: GCCTAGCAC … GTCTTGATTCGCTTGACGCTGCTG
Oligonucleotide	log fluorescence [z-score]
TTAGGTATCCGGACTGGGTTAGTGCTA	-0.16
TTACGTTTCGGTCTCGGTTAGTGCTAG	10.8
GACGATTTCAGACTGGAGGCGTGCTAG	0.227
TTAGATATCGGGTATCGATTTGTGCTA	5.17
GAGGATCTCAGTATCGAGACGTGCTAG	1.51
TTAGAACTGAGTTTCGATTAGTGCTAG	9.22
GACGGTATCATACTGCTGACGTGCTAG	0.315
GACGGAGTGGGGTATCGGGACGTGCTA	0.0846
TTAGGTATGCTACTGCTTTAGTGCTAG	-0.473
CCAGCAGGGTTAGGCTTGCTGTGCTAG	-0.748
GACGATTTCAGACTAGAGACGTGCTAG	0.436
TTTCGTTACTTCCTCAAACAGTGCTAG	10.5
TTAGATTTCGGGTTTCGATTTGTGCTA	8.07
TTAGATATAAGTTTCGATTAGTGCTAG	8.64
GACGGTATCCTTCTACTGACGTGCTAG	0.115
CAGCCTCTGCATTCCCTCAGGTGCTAG	-0.321
TTAGGTATCCCTCTCCTTTAGTGCTAG	-0.0665
TCAGTTTTGAGTTTTCCACTGTGCTAG	0.746
TTAGGTATCATTATCCTTTAGTGCTAG	1.69
TTAGATAGCAGTTTCGATTAGTGCTAG	9.09
TTAGGTATCGGCTATCGGTTAGTGCTA	6.55

Other studies, line by line
Substance	target	test	system	setting	how to read	endpoint	value
PhoQ, residues 284 288 289 292 302 303 NLMGRA	PhoP, residues 12 14 15 18 19 QWHVF (Escherichia coli, UniProt P23836)	Sort-seq, refers to: YFP reporter	E. coli	PhoQ-PhoP variant library, added: 10 µM Mg2+	relative to: high Mg2+ state, higher = stronger signaling	fold induction	4.57

Excerpt of the above (set 7):
Oligonucleotide	log fluorescence [z-score]
GACGGAGTGGGGTATCGGGACGTGCTA	0.0846
TTAGATATCGGGTATCGATTTGTGCTA	5.17
TTAGATATAAGTTTCGATTAGTGCTAG	8.64
TCAGTTTTGAGTTTTCCACTGTGCTAG	0.746
TTAGATAGCAGTTTCGATTAGTGCTAG	9.09
TTACGTTTCGGTCTCGGTTAGTGCTAG	10.8
GACGATTTCAGACTAGAGACGTGCTAG	0.436
TTAGGTATCCGGACTGGGTTAGTGCTA	-0.16
TTAGAACTGAGTTTCGATTAGTGCTAG	9.22
